# Measurements collected from several papers.
# Each numbered part is a random draw from the data of one study; scales do not carry over between parts. Substitutions count along the parent as printed.

# Set 1
# Target: RING finger protein unkempt homolog, zinc fingers 1-6, GST-SBP tag (UNK, Homo sapiens, UniProt Q9C0B0, residues 30-357)
# Method: RNA Bind-n-Seq
# Form: RNA
# Matrix: in vitro
# Tested at: not given
# Notes: RNA with constant flanks, human-mouse chimeric sites, ends assumed
# Relative to: input RNA pool
# Direction: higher = stronger binding
# Constant ends, left off below: GGGAGUUCUACAGUCCGACGAUC … CAACAGAGGAUUGAGCAUCA
# Construct (chain): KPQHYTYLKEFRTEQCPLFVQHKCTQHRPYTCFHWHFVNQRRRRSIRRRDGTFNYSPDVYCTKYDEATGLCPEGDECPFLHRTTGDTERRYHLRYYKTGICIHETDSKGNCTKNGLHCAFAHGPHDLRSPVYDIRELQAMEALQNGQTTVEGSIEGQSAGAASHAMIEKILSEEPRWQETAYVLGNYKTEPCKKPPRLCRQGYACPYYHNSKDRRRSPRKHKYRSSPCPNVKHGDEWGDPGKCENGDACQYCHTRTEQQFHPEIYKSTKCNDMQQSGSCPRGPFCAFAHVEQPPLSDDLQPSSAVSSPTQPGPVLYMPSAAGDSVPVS
Oligonucleotide,bound/input enrichment [ratio]
CGCGUCCUCUCGCUGCUGCGGAGCCCGAGCUGGGAACCAUUCCGGGACUGGUACCCUGCACACAGCCGCCUCUUCGACCAGGCCUUCGGGGUGCCCCGGUUGCCCGAUGAGUGGUCGCAG,0.088
GUAGCUGGGACUACAGAAAUGCUGGUAAUUUCAGUCACUUGCUGAUGACUUCUGAUGUCCCAGCAAAUGUUGGCAUUGUUGACUGCUCUGUGAAGACUUCUGAGGACCCACGUCUAAGGU,0.0797
GAGCCCAGCCGGCAGUUUGUAAAGGACUCAAUUCGGCUGGUUAAAAGAUGCACUAAACCCGACAGAAAAGAAUUCCAGAAGAUUGCCAUGGCUACAGCUAUAGGAUUUGCUAUCAUGGGA,0.238
GUGUCCUGCUUUCAACUAUCACUGAGGAGGCAUCUCUACUGUUCUGUGAGCAUCAGGACUGUAGCGCUGUGUCACCACAUGAGAGUUCAGAAGCAGCCUUUCUGUGGAGAGUGAGAAUGA,0.0685
CACGUGUCUGCAGUACUUGAUGUGGACUACUCUCCCACUGGGAAGGAAUUUGUGUCUGCCAGCUUUGAUAAAUCUAUUAGAAUCUUUCCUGUAGACAAGAGCCGAAGCAGGGAAGUGUAU,0.425
GUUGCCAGCUUCCGGUUCCGUUGGGCUCGGUUCUCUCCUGAGCUACGUGUCUCUACGUUUUAGGUGUGCCAUCCAACAAACAUGGAUCAGGUAAUGCAGUUUGUGGAUGAGCCAAGUCAG,0.093
UGUGAACUGUCUCUUGAGAUCUAAAAAAAACAUGAUUUUUCCUGGCACAUAUUCCAAAGCAAAGACUUUGUUGCCUGCUGCUUAUUGUCUAAUUUACAGGGAUAUUUAAUUUUGUCAGGU,0.25
UUGAAAAACACAGAUAUCAAAGUUGUUGACUUUGGAAGUGCAACAUAUGAUGAUGAACAUCACAGUACUUUGGUGUCUACCCGGCACUACAGAGCUCCCGAGGUCAUUUUGGCUUUAGGU,0.525
CAGCCUCAGAGCCCAGACUUCCUGGAUAUUACCAACCCUAAAGCGGUAUUAGAAAACGCACUUAGGAACUUCGCCUGUCUGACGACUGGAGAUGUGAUUGCUAUCAACUACAAUGAGAAG,0.542
GCAGGAUCUUCUAAGUACCAGUGGGGCAUUAUGAAAUCCCUUGGGCUCUCUGAUGACGACAUAGUGAAAUUUUCUGAAGCAGAGCACUGGCUUGAUUAUUUCCCACCACUGGCCGUUCAG,0.193
AAAGAGAAACUAAAGCAACUAAUAGAGAAGAGGAUUGGGCAAAGAGAUUUCAUAGAGAAACUAGGAUUUAUUAGCAAACAUGAGUUAUAUUCCAGAGGCAUCUCAGAACCCCAGCCAAAC,6.62

# Set 2
# Target: Fragile X messenger ribonucleoprotein 1, C-terminal low-complexity region (Fmr1, Mus musculus, UniProt P35922)
# Method: RNA Bind-n-Seq
# Form: RNA
# Matrix: in vitro
# Tested at: 200 nM
# Notes: whole 134-nt RNA, ends assumed
# Together with: 150 mM KCl
# Relative to: input library
# Direction: higher = stronger binding
# Constant ends, left off below: GGGAGUUCUACAGUCCGACGAUC … UGGAAUUCUCGGGUGUCAAGG
Oligonucleotide,log2 enrichment
CUGUGCUACACAUCGUAUGUACCGAAUCGGGGCCCCCCCGGCCCCCCCGGGCCCCCCCGGGAAAGUAUUAUGUUACGCCGUUCGGAUCUG,-1.12
AAGUCCUGUGCUACACAUCGUAUGUACCGAAUCGGGGUUUUGGGUUUUGGGUUUUGGAAAGUAUUAUGUUACGCCGUUCGGAUCUGCACU,-0.15
UCCUGUGCUACACAUCGUAUGUACCGAAUCAAACCCAAAUUUUUUUAAACCCCCCCAAAAAAGUAUUAUGUUACGCCGUUCGGAUCUGCA,0.354
UGGGAGGUGGAUUUUGUUUAUUUUUUUAGCUCAGUUCCAGGGGUGGGAAUUUUUUUUUAAUAUGUGUCAUGAAUAAAGUUGUUUUUGAAA,0.329
UCAAGUCCUGUGCUACACAUCGUAUGUACCGAAUCGGGAAAAAGGGUGGGUGGGAAAGUAUUAUGUUACGCCGUUCGGAUCUGCACUUCC,1.09
AGUCCUGUGCUACACAUCGUAUGUACCGAAUCGGGGUUUUUGGUUUUUGGGUUUUUGGAAAGUAUUAUGUUACGCCGUUCGGAUCUGCAC,-0.292
GUCCUGUGCUACACAUCGUAUGUACCGAAUCGGGGUUUUUGGGGAGGGGUUUUUGGGGAAAGUAUUAUGUUACGCCGUUCGGAUCUGCAC,0.606
AAGUCCUGUGCUACACAUCGUAUGUACCGAAUCGGGAGGGAAAGGGUUUUUUUGGGAAAGUAUUAUGUUACGCCGUUCGGAUCUGCACUU,0.665
CCUCAAGUCCUGUGCUACACAUCGUAUGUACCGAAUCGGCCGGGCCGGCCGGAAAGUAUUAUGUUACGCCGUUCGGAUCUGCACUUCCAG,-0.288
AAGUCCUGUGCUACACAUCGUAUGUACCGAAUCGGGAGGGUUUUUGGGUUUUUGGGAAAGUAUUAUGUUACGCCGUUCGGAUCUGCACUU,0.452
UAACUUUAGAGGAGGAUCUGAUGGAUUUGGCAGUGGACGUGGAUUUGGGGAUGGCUAUAAUGGGUAUGGAGGAGGACCUGGAGGUGGCAA,0.276
GUCCUGUGCUACACAUCGUAUGUACCGAAUCGGGGAGGGGAAAAAAAGGGGUUUGGGGAAAGUAUUAUGUUACGCCGUUCGGAUCUGCAC,0.445
CUCAAGUCCUGUGCUACACAUCGUAUGUACCGAAUCGGCCCGGCCCGGCCCGGAAAGUAUUAUGUUACGCCGUUCGGAUCUGCACUUCCA,-0.00865
UAAAUUUAGAGGAGGAUCUGAUGGAUAUGGCAGUGGACGUGGAUUUGGGGAUGGCUAUAAUGGGUAUGGAGGAGGACCUGGAGGUGGCAA,0.206

# Set 3
# Target: Interferon regulatory factor 3, full length, phosphomimetic (IRF3, Homo sapiens, UniProt Q14653, residues 1-427, S386D/S396D/S398D/S402D/T404D/S405D)
# Chain of UniProt Q14653 (whole entry, unmodified, looked up): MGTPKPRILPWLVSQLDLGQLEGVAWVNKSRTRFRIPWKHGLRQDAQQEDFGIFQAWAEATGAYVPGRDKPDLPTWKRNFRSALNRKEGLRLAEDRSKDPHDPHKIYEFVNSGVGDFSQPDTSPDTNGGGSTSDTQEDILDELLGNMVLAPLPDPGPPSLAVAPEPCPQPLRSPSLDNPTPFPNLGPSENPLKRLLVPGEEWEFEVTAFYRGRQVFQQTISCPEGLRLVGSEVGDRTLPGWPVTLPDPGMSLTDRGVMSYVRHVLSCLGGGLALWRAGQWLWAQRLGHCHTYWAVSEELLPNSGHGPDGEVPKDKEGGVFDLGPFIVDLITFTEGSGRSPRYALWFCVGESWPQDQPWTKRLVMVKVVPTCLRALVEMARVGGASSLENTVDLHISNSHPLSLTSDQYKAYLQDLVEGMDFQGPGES
# Method: protein-binding microarray
# Form: double-stranded DNA, one strand shown
# Matrix: in vitro
# Tested at: 2540 nM top
# Notes: 60-bp whole probe
# Together with: salmon DNA 0.4 mg/ml
# Relative to: random background probes
# Direction: higher = stronger binding
# Constant ends, left off below: GCCTAGCAC … GTCTTGATTCGCTTGACGCTGCTG
Oligonucleotide,fitted relative affinity [z-score]
TTAGGTCTCGCTTTCGGTTAGTGCTAG,2.69
TCAGGTTTTTTTTTAATACTGTGCTAG,0.864
TTTGGACTGCTTATCCTTTAGTGCTAG,-0.0032
TCATTTTTACTTCGGGTACTGTGCTAG,1.55
GACGGTCTCAGTATCGGGACGTGCTAG,1.73
GACGGTATCCTTATCGTGACGTGCTAG,5.15
GACGATATTGGGTATCGAGACGTGCTA,-0.0242
TTAGGCTTCCTTTCCCTTTAGTGCTAG,3.78
GACGGTATAGACTTTCGGGACGTGCTA,0.168
GAAATTTTCCCCTACTGTATGTGCTAG,1.63
GACGGTTTAGGTCTCGGGACGTGCTAG,0.906
GACGGACTGCTTATTCTGACGTGCTAG,-0.217
TTAAGTTTCGGTTTCGGTTAGTGCTAG,12.1
TCAGGTAGCCTTATCCCTAAGTGCTAG,1.35
GACGGTATCGGCATCGGGACGTGCTAG,0.855
GACGGTTCCGTTTTCCTGACGTGCTAG,5.59
ATATATATCCATTATAGATGGTGCTAG,1.62
TCCTGTATGGATGTGTCTTAGTGCTAG,-0.181

# Set 4
# Target: ABI1, truncated, D143A, DHFR fusion (Arabidopsis thaliana)
# Method: DHFR PCA, deep sequencing
# Matrix: yeast
# Notes: methotrexate growth selection, single substitutions
# Together with: (+)-ABA 17 µM
# Relative to: wild-type fitted maximum
# Direction: higher = stronger binding
# Parent: PYL1, truncated, DHFR fusion (Arabidopsis thaliana); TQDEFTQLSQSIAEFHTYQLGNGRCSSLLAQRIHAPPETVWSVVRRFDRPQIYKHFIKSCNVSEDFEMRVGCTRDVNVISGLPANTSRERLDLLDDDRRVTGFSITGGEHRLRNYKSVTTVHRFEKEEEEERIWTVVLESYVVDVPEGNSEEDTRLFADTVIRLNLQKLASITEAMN; partner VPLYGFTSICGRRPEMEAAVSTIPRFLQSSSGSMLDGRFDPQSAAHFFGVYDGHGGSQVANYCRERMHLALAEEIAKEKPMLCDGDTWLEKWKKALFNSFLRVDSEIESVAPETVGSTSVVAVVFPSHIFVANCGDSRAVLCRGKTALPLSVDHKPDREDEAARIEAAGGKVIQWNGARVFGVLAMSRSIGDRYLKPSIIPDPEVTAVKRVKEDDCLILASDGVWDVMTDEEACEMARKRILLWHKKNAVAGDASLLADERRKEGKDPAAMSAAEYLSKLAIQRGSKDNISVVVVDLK
Substitution,relative binding score
H55F,76.8%
D3N,67.8%
T106F,86.1%
S104N,10.5%
T106P,-15.1%
R45D,-12.4%
V118Q,38.9%
Q10A,88.1%
V100W,-1.54%
S104T,96.6%
N77V,86.9%
L29I,85%
R111G,7.63%
S26N,63.2%
S104W,-10.2%
V118M,72.3%

# Set 5
# Target: Sal-like protein 4, full length isoform A (SALL4, Homo sapiens, UniProt Q9UJQ4, residues 1-1053)
# Chain of UniProt Q9UJQ4 (whole entry, looked up): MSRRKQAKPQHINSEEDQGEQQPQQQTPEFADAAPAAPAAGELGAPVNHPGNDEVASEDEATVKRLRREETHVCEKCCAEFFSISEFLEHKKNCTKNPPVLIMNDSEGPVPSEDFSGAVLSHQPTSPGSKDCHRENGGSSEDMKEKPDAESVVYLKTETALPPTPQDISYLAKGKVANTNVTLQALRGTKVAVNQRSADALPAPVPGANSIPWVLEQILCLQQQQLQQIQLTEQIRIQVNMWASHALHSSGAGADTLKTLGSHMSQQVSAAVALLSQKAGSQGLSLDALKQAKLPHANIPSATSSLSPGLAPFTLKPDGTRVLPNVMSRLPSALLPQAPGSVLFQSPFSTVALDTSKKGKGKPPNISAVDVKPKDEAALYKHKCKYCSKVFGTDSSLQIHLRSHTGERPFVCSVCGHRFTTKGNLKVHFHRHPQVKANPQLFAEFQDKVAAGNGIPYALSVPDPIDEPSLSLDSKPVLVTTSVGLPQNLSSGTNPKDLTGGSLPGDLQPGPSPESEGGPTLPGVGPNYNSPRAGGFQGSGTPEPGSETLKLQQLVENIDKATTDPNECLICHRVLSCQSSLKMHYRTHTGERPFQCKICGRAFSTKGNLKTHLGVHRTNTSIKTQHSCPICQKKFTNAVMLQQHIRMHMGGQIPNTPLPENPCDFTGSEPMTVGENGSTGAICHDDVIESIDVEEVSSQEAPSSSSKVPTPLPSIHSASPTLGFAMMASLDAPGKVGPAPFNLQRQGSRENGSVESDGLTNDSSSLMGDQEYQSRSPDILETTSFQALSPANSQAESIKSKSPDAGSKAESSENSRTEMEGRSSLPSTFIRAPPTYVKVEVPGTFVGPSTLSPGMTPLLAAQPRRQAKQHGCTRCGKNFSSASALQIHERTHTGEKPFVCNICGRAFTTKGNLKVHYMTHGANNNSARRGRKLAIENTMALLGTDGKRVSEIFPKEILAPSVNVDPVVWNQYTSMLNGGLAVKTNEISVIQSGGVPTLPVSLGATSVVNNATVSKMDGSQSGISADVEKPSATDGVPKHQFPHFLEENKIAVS
# Method: universal PBM
# Form: double-stranded DNA, one strand shown
# Matrix: in vitro
# Tested at: 600 nM
# Notes: 8-mer, flanks averaged, mean of replicates
# Direction: higher = stronger binding
Oligonucleotide,E-score
AGATAGAG,0.0567
GGCTATCA,0.0342
CTAGTGAC,0.0819
GCCCGTCA,-0.317
GCCGAACC,-0.195
CCTGGAAG,-0.172
GCGGGGCC,-0.391
CGTTACAC,-0.0456
CATTTCAA,0.344
GCGGATAC,0.0247
AAAGCATA,0.266
CATCCCGC,-0.217
CTGGTACC,-0.314
TACCAGAA,0.106
ATCGGTTG,0.0296
AACACCCT,-0.102
ACCTTTCT,0.131
CAACGGCG,-0.293
GCGCCCGA,-0.409
GCCCACGC,-0.363
AGCAGAAA,0.195
CAGCTGGG,-0.353
AACATTAA,0.328
AGTGCGAG,-0.123

# For quick reference, copied from above (set 5):
Oligonucleotide,E-score
GCGGATAC,0.0247
AAAGCATA,0.266
CATCCCGC,-0.217
CTGGTACC,-0.314
TACCAGAA,0.106
ATCGGTTG,0.0296
